Assay results gathered from unrelated publications.
Each line is one published result; not all experiments were run side by side.

Structure (SMILES)	assay	test system	setting	endpoint	value
C[C@@H]1OC(=O)NN=C1c1ccc(-c2ccc(F)cc2)c(C(F)(F)F)c1		patients, phase I trial	oral, 5 mg once daily, any grade TEAE	patients with platelet count decreased	100%
N[C@@H]1c2ccccc2OC12CCN(c1cnc3c(N4CCCc5ncccc54)n[nH]c3n1)CC2		advanced solid tumour patients	oral, 50 mg once daily	patients with fatal TEAE	0%
C=CCNc1c(O)cc2c(O)c1C[C@@H](C)C[C@H](OC)[C@H](O)[C@@H](C)/C=C(\C)[C@H](OC(N)=O)[C@@H](OC)/C=C\C=C(/C)C(=O)N2		unresectable or metastatic sarcoma	intravenous, 500 mg/m^2, grade 3-4 lab change	patients with ALT increase	0%
CCN(CCO)CCCC(C)Nc1ccnc2cc(Cl)ccc12 (centres unmarked)	refers to: Constipation grade 1	newly diagnosed glioblastoma patients	oral, 200 mg/dose, with radiotherapy and temozolomide	patients with adverse event	33%
Nc1nc2cc(-c3ccc4ncc(C(=O)N5CCOCC5)n4c3)ccc2o1	refers to: Diarrhea, any cause, all grades	patients with advanced solid tumours	dose not given	patients with adverse events	44%
CC(=O)c1c(C)c2cnc(Nc3ccc(C4CCN(CCS(C)(=O)=O)CC4)cn3)nc2n(C2CCCC2)c1=O		HR+/HER2- advanced breast cancer patients	oral, 50 mg	patients with TRAE grade ≥3	33.3%
CN1CC[C@@H](c2c(O)cc(O)c3c(=O)cc(-c4ccc(C(F)(F)F)cc4Cl)oc23)[C@@H]1CO	refers to: Sepsis	relapsed B-cell malignancies	oral, 100 mg, grade 3-4, intermittent dosing	patients with adverse event	0%
O=C1Nc2cc3[nH]nc(-c4ccncc4)c3cc2CN1Cc1ccccc1	CTCAE v4.03	advanced solid tumour patients	intravenous, 3.6 mg/kg	patients with diarrhoea	0%

Some of these lines once more:
Structure (SMILES)	assay	test system	setting	endpoint	value
CC(=O)c1c(C)c2cnc(Nc3ccc(C4CCN(CCS(C)(=O)=O)CC4)cn3)nc2n(C2CCCC2)c1=O		HR+/HER2- advanced breast cancer patients	oral, 50 mg	patients with TRAE grade ≥3	33.3%
